Measurements gathered from unrelated publications.
Each numbered part is a random draw from the data of one study; scales do not carry over between parts. Positions count from the first letter of the parent shown.

Series 1
Target: RNA binding protein fox-1 homolog 2, RRM domain, GST-SBP tag (RBFOX2, Homo sapiens, UniProt O43251-10, residues 100-194)
Method: RNA Bind-n-Seq
Molecule type: RNA
Medium: in vitro
Tested at: 365 nM
Notes: natural RNA segment, single round, ends assumed
Relative to: no-protein control
Reading: higher = stronger binding
Constant ends, left off below: GGGAGUUCUACAGUCCGACGAUC … UGGAAUUCUCGGGUGCCAA
Construct (chain): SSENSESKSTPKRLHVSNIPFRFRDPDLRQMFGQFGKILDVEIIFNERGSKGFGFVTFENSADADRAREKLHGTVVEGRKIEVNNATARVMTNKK
Oligonucleotide	RBNS enrichment (R)
UCCCCAGGCCGCCACUGCCCUUGCCCCUUUCAUCUCCCAGCAGCCCUCAGGAGCGUCAGGAUCAUUUUCAACUCUGGUUAGGCCUCCUACCUGGGGAGGCCAGGUCACUG	0.472
AAUUGUCCCUAAUAGAAAGCCACCUAUUCUUUGUUGGAUUUCUUCAAGUUUUUCUAAAUAAAUGUAACUUUUCACAAGAGUCAACAUUAAAAAAUAAAUUAUUUAAGAAC	0.436
GGAAAAGAUGCCAUAUCCCUCUAAAUCUAGUGAUUAGACCUAGGAUCACCCUGUCUCUUUACCACUAACCUGUGAGGUGUCGUCACCAGAGGACACCUGAGGCCUUGACA	0.225
UGUGAUUUACUGUUAGAUUGCCAAUAUAAGUAAAUAUAGACAUAAUCUAUAUAUAGUGUUUCACAAAGCUUAGAUCUUUAACCUUGCAGCUGCCCCACAGUGCUUGACCU	0.337
AGUGUUGACCACUGAAGCAUCUUUUAAGUCUGUGUUCCAUUGUGCCAUUCAGGUUUGCUGUCACAUAUGCAUCAUCUGAAAUCAUUUGAAAUUUUUGUACAAUAAAAUAU	3.49
UUUUAUAAAUGCUUAUUUAUGUUAUAAAAUGGAGAUCAGAAAAAAAUUCUUUUUGCACUUUGGCCUAUCCAGUAUCUUAUUUAUUCUCUAGAUAAGCUAGGAUAUUAAUC	0.607
GAGAUGUUUUUGUUGCAUUGUGUUCUCAUAGCCUAUGCACAUCCUUAUGUUCUUCUAAGUAAUGCCUAUGACCCAAUGCAACUAGGCAGUAAGUAUCCACGACUCCAACC	0.35
UCUCUGCUGCACCACUGUCAGACUGGGCUCUAACCCAAGUGGAAUGCAACUGAGAGGGUCUUCCUGGGCCCGCCUUCCCCGACAGCCCUAGUGUUACACUGGUUCUGGAG	0.301
CAUAUAUUUUCAGGUUCUGCCCACACUGUGAGGUUUUUCUAGAAUCACUGAGUUUCUGAUUUAGUAGUUUGUUCUGUAGAUCCCCAAAGCUGUGCUGUGUAUUGGUGGUU	1.38
UAUCAUCUUCAGAGAAAAAAUAAAGCAAGAAAUACUAACAUCAAAAGGACAGGUAUGAUGAUGCGAUAAUAAUAAACAUCUGCGUUUGUCUCUUCACUAAGAGUAAACUG	0.394
CCAUCAGCAAUACCUGGUGUUCUCCCACCUUGAAAGGACUCUUGGCUCCUGCCGGGUUCCUGCUCAGGCUGGAAUUGGGAAAAUAUGCAGGUGACAUUUGUUCAUUCUCU	0.28
CUUCCUUGGUCUACAUAAAGAAGACAUGGGUCUGUCAUAGAAUGGGGACAUUAGACUGAAAACUGGGACAACCCCCUUCCUUAUUUUAUAGAGACUAGGAGUUAAGGGGC	0.604

Series 2
Target: Ras GTPase-activating protein-binding protein 1, RRM domain (G3BP1, Homo sapiens, UniProt Q13283)
UniProt Q13283, sequence (whole entry, looked up): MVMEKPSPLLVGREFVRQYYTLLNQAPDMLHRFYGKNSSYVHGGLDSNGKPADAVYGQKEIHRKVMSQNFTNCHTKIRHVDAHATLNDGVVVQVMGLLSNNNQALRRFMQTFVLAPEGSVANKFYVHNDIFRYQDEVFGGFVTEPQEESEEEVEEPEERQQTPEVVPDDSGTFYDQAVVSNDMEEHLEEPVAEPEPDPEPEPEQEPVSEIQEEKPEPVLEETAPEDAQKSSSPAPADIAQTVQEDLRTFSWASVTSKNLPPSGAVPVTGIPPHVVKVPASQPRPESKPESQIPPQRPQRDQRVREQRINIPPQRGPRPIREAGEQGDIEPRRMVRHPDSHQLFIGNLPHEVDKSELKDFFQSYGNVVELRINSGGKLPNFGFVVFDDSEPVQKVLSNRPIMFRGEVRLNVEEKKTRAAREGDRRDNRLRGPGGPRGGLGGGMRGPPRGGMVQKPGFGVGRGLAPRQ
Method: RNA Bind-n-Seq
Molecule type: RNA
Medium: in vitro
Tested at: 1 µM
Notes: whole 134-nt RNA, ends assumed
Added: 150 mM KCl
Relative to: input library
Reading: higher = stronger binding
Constant ends, left off below: GGGAGUUCUACAGUCCGACGAUC … UGGAAUUCUCGGGUGUCAAGG
Oligonucleotide	log2 enrichment
CAAGUCCUGUGCUACACAUCGUAUGUACCGAAUCGGGAGGGUUUUUUUGGGUGGGAAAGUAUUAUGUUACGCCGUUCGGAUCUGCACUUC	0.547
GUCCUGUGCUACACAUCGUAUGUACCGAAUCGGCCCCCCGGCCCCCCGGCCCCCCGGGAAAGUAUUAUGUUACGCCGUUCGGAUCUGCAC	-0.604
UGGCCCUGGUGGCAUGCGGGGAGGAAGAGGUGGCCUCAUGGAUCGUGGUGGUCCCAGUGGAAUGUUCAGAGGUGGCCGUGGUGGAGACAG	0.569
ACCAUGCAGGUGGGCAUCUUUGGGAAGUGGGGCAAGGGGGGGAUAGGGAGGGGGGUAACACUUUGGGAACAGGUGGUCCCCGGUCGUUUC	0.511
UAACUUUAGAGGAGGAUCUGAAGGAUAUGGCAGUGGACGUGGAUUUGGGGAUGGCUAUAAUGGGUAUGGAGGAGGACCUGGAGGUGGCAA	-0.743
CUCAAGUCCUGUGCUACACAUCGUAUGUACCGAAUCGGCCCGGGCCCGGCCCGGAAAGUAUUAUGUUACGCCGUUCGGAUCUGCACUUCC	-0.668
GUCCUGUGCUACACAUCGUAUGUACCGAAUCGGGGUUUUUGGUUUUUGGGUUUUUGGGAAAGUAUUAUGUUACGCCGUUCGGAUCUGCAC	-0.131
AAGUCCUGUGCUACACAUCGUAUGUACCGAAUCGGGGCCCGGGCCCGGGCCCGGGGAAAGUAUUAUGUUACGCCGUUCGGAUCUGCACUU	-0.646
UUAAAGAAGAGGGUGUGCGGGACGUCCUUAAGGAUGUACUGCUCCCAUGGUACAAUGCCUAUCGCUUCUUAAUCCAGAACGUUCUGAGGC	-0.253
ACCAUGCAGGUGGGCAUCUUUGGGAAGUGGGGCAAGGGGGGGAUAGGGAGGAGGGUAACACUUUGGGAACAGGUGGUCCCAGGUCGUUUC	0.285
CGGGAGGUGGAUUUUGUUUAUUUUUUUAGCUCAUUUCCAGGGGUGGGAAUUUUUUUUUAAUAUGUGUCAUGAAUAAAGUUGUUUUUGAAA	1.67
UGGGAGGUGGAUUUUGUUUAUUUUUUUAGCUCAUUUCCAGGGGUGGGAAUUUUUUUUUAAUAUGUGUCAUAAAUAAAGUUGUUUUUGAAA	1.78
UACUCUUUGAUUUAUCAAAUGUGUUCAGUUGGAGAAUCGUCCUCAGGAAAGGCUUCAAGGAGCCUUGCACAGCAUAUUCCUGGCCCUGGU	-0.36
CACAGACAACACGCACCCACACAGACACAGAGGGAAGGGGUUGGGAUGGGGACACGGUGCACAGCAGGGCGGGGUAGGACCCCAGCCCCU	-0.0987

Series 3
Target: ABI1, truncated, D143A, DHFR fusion (Arabidopsis thaliana)
Method: DHFR PCA, deep sequencing
Medium: yeast
Notes: methotrexate growth selection, single substitutions
Added: (+)-ABA 1.4 µM
Relative to: wild-type fitted maximum
Reading: higher = stronger binding
Starting sequence: PYL1, truncated, DHFR fusion (Arabidopsis thaliana); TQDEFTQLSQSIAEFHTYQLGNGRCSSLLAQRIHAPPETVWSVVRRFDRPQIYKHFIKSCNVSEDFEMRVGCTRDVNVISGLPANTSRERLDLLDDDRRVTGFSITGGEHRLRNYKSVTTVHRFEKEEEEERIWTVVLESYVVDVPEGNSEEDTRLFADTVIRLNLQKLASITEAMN; partner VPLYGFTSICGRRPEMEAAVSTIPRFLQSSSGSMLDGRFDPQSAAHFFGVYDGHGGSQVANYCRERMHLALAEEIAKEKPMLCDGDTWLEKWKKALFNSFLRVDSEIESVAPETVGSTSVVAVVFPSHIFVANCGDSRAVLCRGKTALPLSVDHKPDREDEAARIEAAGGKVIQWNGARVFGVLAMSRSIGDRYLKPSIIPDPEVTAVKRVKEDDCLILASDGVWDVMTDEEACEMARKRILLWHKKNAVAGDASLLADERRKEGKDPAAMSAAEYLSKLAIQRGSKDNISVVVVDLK
Substitution	relative binding score [%]
L82I	42.6
Q167G	38.6
D95P	-3.15
L169R	4.67
V137A	1
I33K	-12.3
T73A	13
M176R	45.8
E89K	-7
A170R	57.1
E147G	-0.321
G102I	-6.33
N165H	16
D153I	-16.3
P83T	4.24
E125Y	67.7
A13L	35.7
A158N	-8.39
P50W	0.473
V143T	32.6
N22R	56

Series 4
Target: Histone acetyltransferase KAT6A, winged helix 1, GST fusion (KAT6A, Homo sapiens, UniProt Q92794, residues 1-85)
Method: protein binding microarray
Molecule type: double-stranded DNA, one strand shown
Medium: in vitro
Tested at: not given
Notes: 8-mer, flanks averaged, mean of 2 arrays, mostly near background
Relative to: not given
Reading: higher = stronger binding
Construct (chain): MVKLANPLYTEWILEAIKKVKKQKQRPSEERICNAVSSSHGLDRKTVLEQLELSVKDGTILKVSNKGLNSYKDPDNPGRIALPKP
Oligonucleotide	E-score
CCCGCAGG	0.264
CCAGAGGC	-0.0393
CTTGTTTA	-0.15
AGATCACT	-0.178
AACCAACA	-0.157
GAGGAGCC	-0.0865
CAGAGTAC	0.0558
TGGGTGAA	-0.0467
ATCTGACG	0.00522
GGTAACTA	0.0526
CAGCCAAC	-0.0329
CAGTCAAG	-0.244
AATGATCA	-0.0552
ACTTCTTC	-0.134
CATTCGAA	-0.182
AACCGCCG	0.407
CTTTGTTC	-0.0345
ATCCCCAC	-0.18
AGCAGCAA	-0.0464
TGATGCCA	-0.121
CCACTTGC	-0.182

Series 5
Target: Sal-like protein 4, full length isoform A (SALL4, Homo sapiens, UniProt Q9UJQ4, residues 1-1053)
UniProt Q9UJQ4, sequence (whole entry, looked up): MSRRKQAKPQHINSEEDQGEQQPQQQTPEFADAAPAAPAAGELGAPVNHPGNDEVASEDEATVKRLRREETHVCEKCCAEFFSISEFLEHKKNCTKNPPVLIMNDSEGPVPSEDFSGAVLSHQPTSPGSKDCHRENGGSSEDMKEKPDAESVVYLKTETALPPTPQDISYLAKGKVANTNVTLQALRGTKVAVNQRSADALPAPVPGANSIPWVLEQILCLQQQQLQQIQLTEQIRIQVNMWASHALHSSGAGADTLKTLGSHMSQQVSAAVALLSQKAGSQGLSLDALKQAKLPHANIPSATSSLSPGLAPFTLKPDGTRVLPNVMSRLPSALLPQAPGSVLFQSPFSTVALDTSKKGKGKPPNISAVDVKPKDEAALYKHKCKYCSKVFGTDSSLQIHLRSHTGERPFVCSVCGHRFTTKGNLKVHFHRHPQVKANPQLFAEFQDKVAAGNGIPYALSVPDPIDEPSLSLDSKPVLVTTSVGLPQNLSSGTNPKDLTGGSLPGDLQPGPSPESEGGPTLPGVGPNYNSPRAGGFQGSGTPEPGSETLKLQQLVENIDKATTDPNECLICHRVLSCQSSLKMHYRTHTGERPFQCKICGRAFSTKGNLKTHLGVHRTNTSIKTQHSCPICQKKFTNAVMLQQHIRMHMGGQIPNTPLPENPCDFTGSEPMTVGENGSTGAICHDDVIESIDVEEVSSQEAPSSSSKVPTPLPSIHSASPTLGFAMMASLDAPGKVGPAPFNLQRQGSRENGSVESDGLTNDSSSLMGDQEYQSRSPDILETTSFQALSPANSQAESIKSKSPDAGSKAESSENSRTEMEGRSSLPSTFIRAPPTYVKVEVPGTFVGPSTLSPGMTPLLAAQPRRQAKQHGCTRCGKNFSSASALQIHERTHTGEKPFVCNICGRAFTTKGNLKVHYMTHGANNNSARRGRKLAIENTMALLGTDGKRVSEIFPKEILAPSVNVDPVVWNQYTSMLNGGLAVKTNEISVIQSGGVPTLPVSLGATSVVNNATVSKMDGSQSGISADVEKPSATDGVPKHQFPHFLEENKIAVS
Method: universal PBM
Molecule type: double-stranded DNA, one strand shown
Medium: in vitro
Tested at: 600 nM
Notes: 8-mer, flanks averaged, mean of replicates
Reading: higher = stronger binding
Oligonucleotide	E-score
CGTCTGAC	-0.165
TTAGAAAA	0.273
GAGAGTAA	0.112
GACCACCC	-0.339
AACGCATC	-0.00655
AACTAAAC	0.11
TCTTTCCA	-0.0207
AACCATAA	0.336
CCCGCGTC	-0.319
CTGGCAGA	-0.108
ACATTCCT	0.109
ATGTATCG	0.211
CATAGGCG	-0.0608
CCTCTTCA	0.137
CCAAATAA	0.231
CCTGTCGA	-0.11
CAAAATTC	0.274
ATTCGACC	-0.102
GATGATAC	-0.00483

Some of these lines once more (series 4):
Oligonucleotide	E-score
AGCAGCAA	-0.0464
CTTTGTTC	-0.0345
CTTGTTTA	-0.15
AATGATCA	-0.0552
GAGGAGCC	-0.0865
AACCGCCG	0.407
CATTCGAA	-0.182
CCCGCAGG	0.264
TGATGCCA	-0.121
ATCCCCAC	-0.18
CAGCCAAC	-0.0329
ATCTGACG	0.00522
